Experimental data gathered from unrelated publications.
Organism: Plasmodium falciparum

Compound | test | test system | conditions | IC50 [µM]
CSCCC(NC(=O)COc1ccc(Cl)cc1Cl)C(=O)O (centres unmarked) | parasite growth, parasite lactate dehydrogenase | NF54 (chloroquine-sensitive) | – | > 285
O=C1Nc2cc(F)cc(F)c2C(=O)CCc2ccccc21 | parasite growth | NF54 chloroquine-sensitive | – | 0.13
C/C(=C/CC/C(C)=C\C(=O)C[C@]1(C)CCc2cc(O)cc(C)c2O1)CO | parasite growth, SYBR Green | DD2 | 72 h, drug-resistant strain, blood stage | > 112
CCN1CCN(c2ccc(Nc3ccnc4cc(Cl)ccc34)cc2)CC1 | parasite growth, SYBR Green | DD2 | 72 h, drug-resistant strain, blood stage | 0.026
CCN(CC)CCCC(C)Nc1ccnc2cc(Cl)ccc12 (centres unmarked) | schizont maturation | field isolates | 20% human serum | 0.34
Clc1ccc2c(Nc3ccc(N4CCN(Cc5ccccc5)CC4)cc3)ccnc2c1 | parasite growth, SYBR Green | D6 | 72 h, blood stage | 0.02
O=C(CCCCCONC(=O)c1ccc(-c2ccccc2)cc1)NO | parasite growth | HN12, NF54 | 72 h, gametocyte | ≤ 1
CC(C)c1nc(CN(C)C(=O)N[C@H](C(=O)N[C@@H](Cc2ccccc2)C[C@H](O)[C@H](Cc2ccccc2)NC(=O)OCc2cncs2)C(C)C)cs1 | parasite growth, flow cytometry | 3D7, human O+ erythrocytes | 48 h | 3
CC(C)CN1CCN(c2ccc(Nc3ccnc4cc(Cl)ccc34)cc2)CC1 | parasite growth, SYBR Green | D6 | 72 h, blood stage | 0.008
Oc1ccc(CCNc2c3ccccc3nc3ccccc23)cc1O | parasite growth | erythrocytes | 48 h | 1.3
CCCCN1CCC(c2ccc(Nc3ccnc4cc(Cl)ccc34)cc2)CC1 | parasite growth, SYBR Green | DD2 | 72 h, drug-resistant strain, blood stage | 0.011
C[C@H]1[C@@H](OC[C@@H](O)[C@@H](O)CO[C@H]2O[C@@H]3O[C@@]4(C)CC[C@H]5[C@H](C)CC[C@@H]([C@H]2C)[C@@]35OO4)O[C@@H]2O[C@@]3(C)CC[C@H]4[C@H](C)CC[C@@H]1[C@@]24OO3 | parasite growth | W2 | 72 h, drug-resistant strain, blood stage | < 0.01
CC(C)(C)OC(=O)N1CCN(c2ccc(Nc3ccnc4cc(Cl)ccc34)cc2)CC1 | parasite growth, SYBR Green | D6 | 72 h, blood stage | 0.069
O=C(O)C1Cc2c([nH]c3ccccc23)C(c2ccc(O)cc2Cl)N1 (centres unmarked) | parasite growth | Dd2 | – | > 5
CSCCC(NC(=O)OCc1ccccc1)C(=O)NCC(=O)O (centres unmarked) | parasite growth, parasite lactate dehydrogenase | NF54 (chloroquine-sensitive) | – | > 295
COc1ccc(C(=O)/C=C/c2ccc(O)c(CN3CCN(c4ccnc5cc(Cl)ccc45)CC3)c2)c(OC)c1 | parasite growth | D10 | blood stage | 0.3 to 0.6
CC(C)(C)c1ccc(O)c(CNC2CCCCC2)c1 | exflagellation | stage V gametocytes | 24 h, compound washed out | > 20
COc1cc2nc(C)c(-c3ccc(Oc4ccc(OC(F)(F)F)cc4)cc3)c(OCOC(=O)OC(C)C)c2cc1Cl | parasite growth, SYBR Green I | D6, drug-sensitive | 72 h | 0.062
CCN1CCN(c2ccc(Nc3ccnc4cc(C(F)(F)F)ccc34)cc2)CC1 | parasite growth, SYBR Green | D6 | 72 h, blood stage | 0.015
CCCOC(=O)C1=C(C)NC2=C(C(=O)CC(c3ccc(OC)c(OC)c3)C2)C1c1ccccc1F (centres unmarked) | female gamete formation, item: Pfs25 | stage V gametocytes | 24 h, compound carried over | > 20

A few entries again:
Compound | test | test system | conditions | IC50 [µM]
C[C@H]1[C@@H](OC[C@@H](O)[C@@H](O)CO[C@H]2O[C@@H]3O[C@@]4(C)CC[C@H]5[C@H](C)CC[C@@H]([C@H]2C)[C@@]35OO4)O[C@@H]2O[C@@]3(C)CC[C@H]4[C@H](C)CC[C@@H]1[C@@]24OO3 | parasite growth | W2 | 72 h, drug-resistant strain, blood stage | < 0.01
